# Experimental data collected from several papers.
# Compare with care: the assays were run in different laboratories. ± marks the error that the study gave.
SMILES,system,conditions,tissue uptake
N=C(N)NCCC[C@@H]1NC(=O)[C@H](CCCCNC(=O)CC[C@H](NC(=O)[C@H](CCCCNC(=O)c2ccc(NN)nc2)NC(=O)c2ccc(NN)nc2)C(=O)NCCCC[C@@H]2NC(=O)[C@@H](Cc3ccccc3)NC(=O)[C@H](CC(=O)O)NC(=O)CNC(=O)[C@H](CCCNC(=N)N)NC2=O)NC(=O)[C@@H](Cc2ccccc2)NC(=O)[C@H](CC(=O)O)NC(=O)CNC1=O [technetium-99m labelled],"athymic nude mouse, female, U-87 MG xenograft, intestine","intravenous, 0.1 MBq, 1 h",9.29 ± 1.66 %ID/g
N=C(N)NCCC[C@@H]1NC(=O)[C@H](CC(=O)NC23CNCCNCC(N)(CNCCNC2)CNCCNC3)NC(=O)[C@@H](Cc2ccccc2)NC(=O)[C@H](CC(=O)O)NC(=O)CNC1=O [copper-64 labelled],"Nu/Nu mouse, male, tumour-bearing, bone","intravenous, 10 µCi, 24 h",0.29 ± 0.07 %ID/g
CSCC[C@H](NC(=O)[C@H](CC(C)C)NC(=O)[C@H](Cc1c[nH]cn1)NC(=O)CNC(=O)[C@@H](NC(=O)[C@H](C)NC(=O)[C@H](Cc1c[nH]c2ccccc12)NC(=O)[C@H](CCC(N)=O)NC(=O)CCCCCNC(=O)CNC(=O)CNC(=O)CNC(=O)CSC(C)=O)C(C)C)C(N)=O [technetium-99m labelled],"nude mouse, PC-3 xenograft, muscle","90 min, together with: excess unlabelled conjugate",0.16 ± 0.03 %ID/g
N=C(N)NCCC[C@@H]1NC(=O)[C@H](CCCCNC(=O)CCOCCOCCOCCOCCNC(=O)CC[C@H](NC(=O)CCOCCOCCOCCOCCNC(=O)CC[C@H](NC(=O)CN2CCN(CC(=O)O)CCN(CC(=O)O)CCN(CC(=O)O)CC2)C(=O)NCCOCCOCCOCCOCCC(=O)N[C@@H](CCC(=O)NCCOCCOCCOCCOCCC(=O)NCCCC[C@@H]2NC(=O)[C@@H](Cc3ccccc3)NC(=O)[C@H](CC(=O)O)NC(=O)CNC(=O)[C@H](CCCNC(=N)N)NC2=O)C(=O)NCCOCCOCCOCCOCCC(=O)NCCCC[C@@H]2NC(=O)[C@@H](Cc3ccccc3)NC(=O)[C@H](CC(=O)O)NC(=O)CNC(=O)[C@H](CCCNC(=N)N)NC2=O)C(=O)NCCOCCOCCOCCOCCC(=O)NCCCC[C@@H]2NC(=O)[C@@H](Cc3ccccc3)NC(=O)[C@H](CC(=O)O)NC(=O)CNC(=O)[C@H](CCCNC(=N)N)NC2=O)NC(=O)[C@@H](Cc2ccccc2)NC(=O)[C@H](CC(=O)O)NC(=O)CNC1=O [indium-111 labelled],"athymic nude mouse U-87 MG xenograft, spleen","intravenous, 1 h, together with: RGD2 co-injected 14 mg/kg",0.5 %ID/g
N=C(N)NCCC[C@@H]1NC(=O)[C@H](CCCCNC(=O)CNC(=O)CNC(=O)CNC(=O)CC[C@H](NC(=O)CNC(=O)CNC(=O)CNC(=O)c2ccc(NN=Cc3ccccc3S(=O)(=O)O)nc2)C(=O)NCC(=O)NCC(=O)NCC(=O)NCCCC[C@@H]2NC(=O)[C@@H](Cc3ccccc3)NC(=O)[C@H](CC(=O)O)NC(=O)CNC(=O)[C@H](CCCNC(=N)N)NC2=O)NC(=O)[C@@H](Cc2ccccc2)NC(=O)[C@H](CC(=O)O)NC(=O)CNC1=O [technetium-99m labelled],"athymic nu/nu mouse, female, MDA-MB-435 xenograft, muscle","intravenous, 120 min",1.05 ± 0.42 %ID/g
CCCC[C@H](NC(=O)CNC(=O)CNC(=O)c1ccc(NN)nc1)C(=O)N[C@H]1CC(=O)NCCCC[C@@H](C(N)=O)NC(=O)[C@H](Cc2c[nH]c3ccccc23)NC(=O)[C@H](CCCNC(=N)N)NC(=O)[C@@H](Cc2ccccc2)NC(=O)[C@H](Cc2c[nH]cn2)NC1=O [technetium-99m labelled],"C57 mouse, B16/F1 melanoma-bearing, brain","intravenous, 4 h",0.03 ± 0.04 %ID/g
CCCC[C@H](NC(=O)[C@H](Cc1cccs1)NC(=O)[C@H](Cc1c[nH]cn1)NC(=O)CCNC(=O)[C@@H](NC(=O)[C@H](C)NC(=O)[C@H](Cc1c[nH]c2ccccc12)NC(=O)[C@H](CCC(N)=O)NC(=O)[C@H](Cc1cccs1)NC(=O)CN1CCC(NC(=O)CN(CCN(CCN(CC(=O)O)CC(=O)O)CC(=O)O)CC(=O)O)CC1)C(C)C)C(N)=O [indium-111 labelled],"Swiss nu/nu mouse, male, PC-3 tumour xenograft, colon","intravenous, 10 pmol, 4 h",1.6 ± 0.6 %ID/g
CCCC[C@H](NC(=O)CNC(=O)CNC(=O)CNC(=O)c1ccc(NN)nc1)C(=O)N[C@H]1CC(=O)NCCCC[C@@H](C(N)=O)NC(=O)[C@H](Cc2c[nH]c3ccccc23)NC(=O)[C@H](CCCNC(=N)N)NC(=O)[C@@H](Cc2ccccc2)NC(=O)[C@H](Cc2c[nH]cn2)NC1=O [technetium-99m labelled],"C57 mouse, B16/F1 melanoma, urine","intravenous, 0.037 MBq, 2 h",93.9 ± 1.47 %ID

# For quick reference, copied from above:
SMILES,system,conditions,tissue uptake
N=C(N)NCCC[C@@H]1NC(=O)[C@H](CCCCNC(=O)CNC(=O)CNC(=O)CNC(=O)CC[C@H](NC(=O)CNC(=O)CNC(=O)CNC(=O)c2ccc(NN=Cc3ccccc3S(=O)(=O)O)nc2)C(=O)NCC(=O)NCC(=O)NCC(=O)NCCCC[C@@H]2NC(=O)[C@@H](Cc3ccccc3)NC(=O)[C@H](CC(=O)O)NC(=O)CNC(=O)[C@H](CCCNC(=N)N)NC2=O)NC(=O)[C@@H](Cc2ccccc2)NC(=O)[C@H](CC(=O)O)NC(=O)CNC1=O [technetium-99m labelled],"athymic nu/nu mouse, female, MDA-MB-435 xenograft, muscle","intravenous, 120 min",1.05 ± 0.42 %ID/g
